Measured values gathered from unrelated publications.
Parts stem from different laboratories: compare values within a part only. Changes are numbered by the printed parent chain.

Set 1 — method: RNA Bind-n-Seq; molecule type: RNA; medium: in vitro; concentration: not given; relative to: input RNA pool; reading: higher = stronger binding
Target: RING finger protein unkempt homolog, zinc fingers 1-6, GST-SBP tag (UNK, Homo sapiens, UniProt Q9C0B0, residues 30-357)
Chain of UniProt Q9C0B0 (30-357, looked up): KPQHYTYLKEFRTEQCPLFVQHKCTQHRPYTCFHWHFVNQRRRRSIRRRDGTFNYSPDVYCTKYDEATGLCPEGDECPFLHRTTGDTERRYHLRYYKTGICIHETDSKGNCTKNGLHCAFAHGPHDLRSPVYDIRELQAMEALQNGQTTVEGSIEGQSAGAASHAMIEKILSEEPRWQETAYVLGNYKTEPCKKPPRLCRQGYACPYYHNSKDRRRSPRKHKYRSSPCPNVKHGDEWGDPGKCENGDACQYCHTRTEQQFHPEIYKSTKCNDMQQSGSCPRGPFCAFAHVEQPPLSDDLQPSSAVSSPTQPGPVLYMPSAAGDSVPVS
Notes: RNA with constant flanks, human and mouse sites, ends assumed
Constant ends, left off below: GGGAGUUCUACAGUCCGACGAUC … CAACAGAGGAUUGAGCAUCA
For `UUGCUCAAUAUGCUCCCAGAUCAAGAGUAUAAGGUUGCUUUUACAAAAACAUUUGUUCAGCAUUAUGCUUUUAUUAUGAAAACACUGAAGAAAAGUCACGAAUCAGAUACAAUGUCCAAC`, the bound/input enrichment was 0.174 ratio.
`CAUGACUUAAAUAAUUCUGAAAGAGUUCAGAAAAUGAAAAACUCACAGAAACCUCAGAAGAUAGAUUCAGAAAUAAGUCCCAAGAAGGAUAAUGAAGAAUUUCUACAAAAUAAAAAAAAG` gave a bound/input enrichment of 0.345 ratio.
With `GAACUCCUCAUGCACCCUGUGCUGGAGUCCCUGAGGAAUACUGACCGGCAGUGGCUGAUUGACACCCUCUAUGCCUUCAACAGUGGCAACGUAGAGCGGUUCCAGACUCUGAAGACUGCC` the bound/input enrichment was 0.079 ratio.
`GUGGCUCGCUAUGCUGCCGAGAACAACAGGGUCUUCACUUUGAACCUGUCUGCACCGUUCAUUAGCCAGUUCUUCAAGGAAGCCUUGAUGGACGUCAUGCCUUAUGUUGAUAUCCUCUUU` gave a bound/input enrichment of 0.136 ratio.
`UUGAUUGCAUCAAAAUGUAUUUCAUCUGUUACAUCCAGUAUUUGUAUUUCAUUCUGAGAACCCAGAUUUCCCCCCACCACCACCACAUUAUAAAUUAAGAAAGGAGGCUAUUACUGUUUA` has a bound/input enrichment of 1.21 ratio.
With `UAUGCAGGUGCCUUGAGAGCUUCAGGGGAAAUGGCUUCAGCGCAGUAUAUUACUGCAGCCCUUAGAGAUUUGUUUGAUUCCAUGGAUAAAACUUCUUCCAGUAUUCCACCUAUUAUUCUA` the bound/input enrichment was 0.739 ratio.
With `GUUUGGCUAAAGCCAAAGAACAGCUUUUCAUAGCCACAUUUUGUAAUUCUUGAUAAGUGAUAGCUUACCAAGCUGUCUUCAUUAAAAACAAAUUUGUCCUUAGCCCUACUUUUUCUCAAA` the bound/input enrichment was 0.489 ratio.

Set 2 — method: protein binding microarray; molecule type: double-stranded DNA, one strand shown; medium: in vitro; concentration: not given; relative to: not given; reading: higher = stronger binding
Target: Histone acetyltransferase KAT6A, winged helix 2, GST fusion (KAT6A, Homo sapiens, UniProt Q92794, residues 85-181)
Notes: 8-mer, flanks averaged, mean of 2 arrays, mostly near background
Construct (chain): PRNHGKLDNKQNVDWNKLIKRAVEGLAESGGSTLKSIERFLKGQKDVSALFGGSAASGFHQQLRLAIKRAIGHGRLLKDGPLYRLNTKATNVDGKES
With `GTGCTGTA` the E-score was 0.129.
`ATGATGAC` has an E-score of -0.117.
For `ACAGGCCA`, the E-score was 0.0171.
`ATTCTGAC` gave an E-score of 0.0353.
With `ATCGTCTG` the E-score was -0.0893.
For `CTATGAGA`, the E-score was -0.0598.
For `CAATTATG`, the E-score was -0.041.
With `AACAAATA` the E-score was -0.088.
`AGACTCCC` gave an E-score of -0.0764.
With `AGACGACT` the E-score was -0.00194.
`ACGTTACC` has an E-score of -0.166.
For `GATGAGAA`, the E-score was -0.053.
`CTTGCAAC` gave an E-score of 0.0161.
`GGAGCCAA` gave an E-score of -0.0201.
`TAAGAGCA` has an E-score of 0.121.
With `ATCGTGTG` the E-score was -0.0596.
For `TAGTGGGA`, the E-score was -0.037.
For `TGAACCCA`, the E-score was 0.0974.
The E-score of `ATGGAATC` is reported as 0.0689.
`AGCGGCCA` gave an E-score of -0.193.
`TAACCTTA` gave an E-score of -0.136.
`ACTGGACA` gave an E-score of -0.0766.
`GCGCAATA` has an E-score of -0.0135.
`AGGGCTTG` gave an E-score of 0.00781.

Set 3 — method: protein-binding microarray; molecule type: double-stranded DNA, one strand shown; medium: in vitro; concentration: 2200 nM top; notes: 60-bp whole probe; together with: salmon DNA 0.4 mg/ml; relative to: random background probes; reading: higher = stronger binding; constant ends, left off below: GCCTAGCAC … GTCTTGATTCGCTTGACGCTGCTG
Target: Interferon regulatory factor 7, full length, phosphomimetic (IRF7, Homo sapiens, UniProt Q92985, residues 1-503, S471D/S472D/S475D/S476D/S477D/S483D/S484D/S487D)
Target sequence (chain): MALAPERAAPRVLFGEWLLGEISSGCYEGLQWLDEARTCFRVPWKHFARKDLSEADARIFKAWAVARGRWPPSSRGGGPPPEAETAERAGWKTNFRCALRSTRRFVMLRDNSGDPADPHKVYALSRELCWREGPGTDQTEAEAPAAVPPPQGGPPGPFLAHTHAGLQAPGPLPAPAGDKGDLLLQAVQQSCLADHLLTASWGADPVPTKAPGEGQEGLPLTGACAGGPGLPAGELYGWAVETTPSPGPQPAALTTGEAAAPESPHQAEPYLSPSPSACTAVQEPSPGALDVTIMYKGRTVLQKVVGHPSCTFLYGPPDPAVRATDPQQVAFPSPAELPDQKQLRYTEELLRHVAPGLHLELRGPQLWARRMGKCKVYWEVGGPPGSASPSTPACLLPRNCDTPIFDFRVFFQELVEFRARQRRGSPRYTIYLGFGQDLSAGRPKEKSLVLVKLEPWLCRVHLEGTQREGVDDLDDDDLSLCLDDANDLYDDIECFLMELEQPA
`TTAGGACTGCACACTGGGTTAGTGCTA` — result for “fitted relative affinity”: -0.289 z-score.
For `TCAAATTCCAAGTTCATACTGTGCTAG`, “fitted relative affinity” read 0.486 z-score.
Under “fitted relative affinity”, `GTCGATATCAGACTGGAGACGTGCTAG` is recorded as 0.476 z-score.
Under “fitted relative affinity”, `CTAGTTTTACTTTCTATGTCGTGCTAG` is recorded as 4.36 z-score.
`GAAGCCCTCCCTGTGGGGGGGTGCTAG`: “fitted relative affinity” -0.413 z-score.
Under “fitted relative affinity”, `GACGGTTTCGGTTTCGGGAGGTGCTAG` is recorded as 15.2 z-score.
For `TTAGGACTGCCTCTCCTTTAGTGCTAG`, “fitted relative affinity” read 0.606 z-score.
`TATATTATATATTTATGTATGTGCTAG` — result for “fitted relative affinity”: 0.67 z-score.
`TTAGATTTCGGGTATCGAATAGTGCTA` — result for “fitted relative affinity”: 2.35 z-score.
For `TTTCCTCTTTCTTTGCTTCAGTGCTAG`, “fitted relative affinity” read 6.15 z-score.
`TTAGGTATCCTTATTCTTTAGTGCTAG`: “fitted relative affinity” 0.742 z-score.
Under “fitted relative affinity”, `AGAGATTTCAGGAATTGAAAAGTGCTA` is recorded as -1.35 z-score.
`GACGGACTGGGGTTTCGGGATGTGCTA` — result for “fitted relative affinity”: 1.01 z-score.
Under “fitted relative affinity”, `TTATGTATCCTTTTCCTTTAGTGCTAG` is recorded as 2.63 z-score.
Under “fitted relative affinity”, `TCAGCTTCCCAATTCTCACTGTGCTAG` is recorded as 1.82 z-score.
`TACGGACTGGACACTGGGGACGTGCTA` — result for “fitted relative affinity”: -0.771 z-score.
`TCCTCTTTCTCTGCTACCCTCGTGCTA` — result for “fitted relative affinity”: 2.67 z-score.

Set 4 — method: DHFR PCA, deep sequencing; medium: yeast; together with: (+)-ABA 200 µM; relative to: wild-type fitted maximum; reading: higher = stronger binding
Target: ABI1, truncated, D143A, DHFR fusion (Arabidopsis thaliana)
Notes: methotrexate growth selection, single substitutions
Parent: PYL1, truncated, DHFR fusion (Arabidopsis thaliana); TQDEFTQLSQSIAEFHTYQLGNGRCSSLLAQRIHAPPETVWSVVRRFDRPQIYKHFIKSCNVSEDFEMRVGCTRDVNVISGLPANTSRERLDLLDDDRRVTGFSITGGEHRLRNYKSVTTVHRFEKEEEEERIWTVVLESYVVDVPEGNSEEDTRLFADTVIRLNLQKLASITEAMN; partner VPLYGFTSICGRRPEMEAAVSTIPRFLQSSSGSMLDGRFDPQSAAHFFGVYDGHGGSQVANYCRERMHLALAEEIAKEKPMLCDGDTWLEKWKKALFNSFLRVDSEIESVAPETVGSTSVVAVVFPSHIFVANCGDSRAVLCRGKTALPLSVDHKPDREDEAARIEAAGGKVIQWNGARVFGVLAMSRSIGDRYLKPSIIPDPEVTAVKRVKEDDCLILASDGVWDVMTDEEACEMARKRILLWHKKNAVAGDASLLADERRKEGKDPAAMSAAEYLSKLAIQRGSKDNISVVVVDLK
Under “relative binding score”, `V145P` is recorded as 60%.
For `V142I`, “relative binding score” read 101%.
Under “relative binding score”, `N114A` is recorded as 78.8%.
`N85K`: “relative binding score” 106%.
`E152K`: “relative binding score” 92.8%.
For `I172C`, “relative binding score” read 86.5%.
For `I172P`, “relative binding score” read -11.2%.
`E147N` — result for “relative binding score”: 89.4%.
`F66S` — result for “relative binding score”: 95.7%.
Under “relative binding score”, `R155D` is recorded as -6.05%.
Under “relative binding score”, `S171A` is recorded as 102%.
Under “relative binding score”, `W41L` is recorded as -10.1%.
Under “relative binding score”, `T173V` is recorded as 99.3%.
`C72W` — result for “relative binding score”: 85%.
For `D96I`, “relative binding score” read 28.2%.
Under “relative binding score”, `V121P` is recorded as 1.41%.
For `E67V`, “relative binding score” read 103%.

Set 5 — target: CCNA2, cyclin fold, Cln2 fusion (human); method: yeast growth competition, sequencing; medium: yeast; notes: strong parent motif; relative to: not given; reading: higher = stronger binding
Parent: INSM1 docking peptide (human); PKAIRKLHFEDEV
`K6N`: “normalised enrichment score” 1.83.
`L7E` — result for “normalised enrichment score”: 0.0298.
`H8V`: “normalised enrichment score” 5.87.
`H8Y`: “normalised enrichment score” 5.46.
For `I4N`, “normalised enrichment score” read 5.17.
`D11W`: “normalised enrichment score” 4.09.
`F9Y`: “normalised enrichment score” 3.48.
For `I4G`, “normalised enrichment score” read 4.76.
`K2S` — result for “normalised enrichment score”: 5.01.
Under “normalised enrichment score”, `H8C` is recorded as 6.08.
Under “normalised enrichment score”, `K6P` is recorded as 0.613.
Under “normalised enrichment score”, `A3K` is recorded as 1.35.
For `E12D`, “normalised enrichment score” read 5.5.

Set 6 — method: aptamer microarray, sandwich; molecule type: DNA with 2'F-ANA; medium: in vitro; concentration: 200 nM; together with: Cy3 exosite-II aptamer, 400 nM; reading: higher = stronger binding; strand: GGTTGGTGTGGTTGG
Target: Prothrombin, mature alpha-thrombin (F2, Homo sapiens, UniProt P00734)
Notes: whole 15-mer aptamer, many near background
Under “mean fluorescence intensity”, `2'F-ANA at 3 4 9 14 15` is recorded as 347 a.u.
`2'F-ANA at 2 4 5 7 8 11 12 14 15`: “mean fluorescence intensity” 49.4 a.u.
Under “mean fluorescence intensity”, `2'F-ANA at 1 6 8 9 13 14 15` is recorded as 53.3 a.u.
Under “mean fluorescence intensity”, `2'F-ANA at 1 2 3 4 7 10 14 15` is recorded as 48.7 a.u.
Under “mean fluorescence intensity”, `2'F-ANA at 1 3 4 6 7 8 11 12 13 14` is recorded as 82.9 a.u.
`2'F-ANA at 2 3 4 8 9` — result for “mean fluorescence intensity”: 709 a.u.
`2'F-ANA at 2 4 7 9 10 11 12 13 14`: “mean fluorescence intensity” 62.3 a.u.
Under “mean fluorescence intensity”, `2'F-ANA at 1 2 3 4 6 8 11 14` is recorded as 61.5 a.u.
`2'F-ANA at 2 6 7 8 12 13 15` — result for “mean fluorescence intensity”: 477 a.u.
For `2'F-ANA at 4 7 8 12 15`, “mean fluorescence intensity” read 791 a.u.

Set 7 — method: RNA Bind-n-Seq; molecule type: RNA; medium: in vitro; concentration: 1 µM; notes: whole 134-nt RNA, ends assumed; together with: 150 mM KCl; relative to: input library; reading: higher = stronger binding
Target: Ras GTPase-activating protein-binding protein 1, RRM domain (G3BP1, Homo sapiens, UniProt Q13283)
Chain of UniProt Q13283 (whole entry, looked up): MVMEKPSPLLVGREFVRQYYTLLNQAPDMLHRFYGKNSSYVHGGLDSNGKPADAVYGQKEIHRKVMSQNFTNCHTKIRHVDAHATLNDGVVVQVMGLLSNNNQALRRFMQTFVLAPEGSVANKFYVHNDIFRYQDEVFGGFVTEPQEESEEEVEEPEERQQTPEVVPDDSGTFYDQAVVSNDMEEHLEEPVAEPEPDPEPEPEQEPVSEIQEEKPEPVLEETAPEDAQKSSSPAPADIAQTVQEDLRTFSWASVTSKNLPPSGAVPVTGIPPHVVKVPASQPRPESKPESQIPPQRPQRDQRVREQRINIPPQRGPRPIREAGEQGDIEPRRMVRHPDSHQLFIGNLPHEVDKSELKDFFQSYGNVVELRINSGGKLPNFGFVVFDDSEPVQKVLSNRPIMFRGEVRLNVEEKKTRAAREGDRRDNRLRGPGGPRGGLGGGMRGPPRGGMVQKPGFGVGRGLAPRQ
Constant ends, left off below: GGGAGUUCUACAGUCCGACGAUC … UGGAAUUCUCGGGUGUCAAGG
For `CAAGUCCUGUGCUACACAUCGUAUGUACCGAAUCGUGUGUGUGUGUGUGUGUGUGUAAAGUAUUAUGUUACGCCGUUCGGAUCUGCACUU`, the log2 enrichment was -0.0905.
With `CAGAACGAUCGAUACAGAAACCACGCUGCCGCCACCACACCAUCACCAUCGACAGAACAGUCCUUAAUCCAGAAACCUGAAAUGAAGGAA` the log2 enrichment was 0.0595.
With `UCAAGUCCUGUGCUACACAUCGUAUGUACCGAAUCGGGAAAGGGAGGGAAAGGGAAAGUAUUAUGUUACGCCGUUCGGAUCUGCACUUCC` the log2 enrichment was 0.769.
With `GAACUUUAGAGGAGGAUCUGAUGGAUAUGGCAGUGGACGUGGAUUUGGGGAUGGCUAUAAUGGGUAUGGAGGAGGACCUGGAGGUGGCAA` the log2 enrichment was -0.765.
The log2 enrichment of `CCUGUGCUACACAUCGUAUGUACCGAAUCGGCCCCCCCGGCCCCCCCGGGGCCCCCCCGGAAAGUAUUAUGUUACGCCGUUCGGAUCUGC` is reported as -0.552.
The log2 enrichment of `UGUGCUACACAUCGUAUGUACCGAAUCGUGUGUGUGUGUGUGUGUGUGUGUGUGUGUGUGUGUAAAGUAUUAUGUUACGCCGUUCGGAUC` is reported as 0.291.
The log2 enrichment of `UCCUGUGCUACACAUCGUAUGUACCGAAUCGGGGAAAGGGGAAAAAAAGGGGAAAGGGGAAAGUAUUAUGUUACGCCGUUCGGAUCUGCA` is reported as 0.871.
